Assay results from different studies.
Compare with care: the assays were run in different laboratories. “And” joins repeats or separate records; there may be more than shown. ± gives the spread as reported.
Organism: SARS-CoV-2

| SMILES | assay | test system | conditions | how to read | quantity | result |
| --- | --- | --- | --- | --- | --- | --- |
| Cc1oc2nc1C(=O)N[C@](C)(C(=O)OC(C)C)c1nc(c(C)o1)C(=O)N[C@](C)(C(=O)OC(C)C)c1nc(c(C)o1)C(=O)N[C@]2(C)C(=O)OC(C)C | viral replication | Vero E6, NRC-03-nhCoV | 10 µM |  | inhibition | 23% |
| O=C1C(O)=C(Nc2ccccc2Cl)C(=O)c2ccccc21 |  | Calu-3 and HepG2 |  | baseline: HepG2 CC50 over antiviral EC50 | selectivity index | 80 ± 10 |
| CCCC/C=C/C(=O)N[C@@H](Cc1csc2ccccc12)C(=O)N[C@H]1COC(=O)[C@@H]2C[C@@H](C)CN2C(=O)[C@H](C)NC(=O)[C@@H]2CCCCN2C(=O)[C@@H]2CCCN2C1=O |  | Huh-7 CLPP knock-out 2 | concentration not given, 6 h, unit not given | baseline: DMSO | RNA release | 0.74 and 0.781 and 0.761 |
| CC(=O)OC1(C)CC(C=C(C)CCC=C(C)C)OC2(C=C(CO)C3CC(=O)C(C)=CC3O2)C1 (stereo not drawn) | viral replication, refers to: nucleocapsid protein | Calu-3, Omicron BA.5 |  |  | EC50 | 300 nM |
| Cc1ccc(N2CC3CC(C2)N3)cc1C(=O)NC1(c2ccc3c4c(cccc24)C(=O)N3C)CC1 | viral replication | Vero C1008, Omicron BA.5 | 12.5 µM |  | inhibition | 100% |
| CC(C)(C)NC(=O)[C@@H](c1cccnc1)N(C(=O)c1ccco1)c1ccc(C(C)(C)C)cc1 | viral replication | Vero | 10 µM |  | viral reduction | 4.42% |
| COc1ccc(-c2cnc3[nH]cc(C#Cc4cccnc4)c3c2)cc1OC |  | Calu-3 | 5 µM |  | viral infection | no effect |
| O=c1nc(NO)ccn1[C@@H]1O[C@H](CO)[C@@H](O)[C@H]1O | viral replication | Vero | concentration not given, 48 h, single nontoxic dose |  | virus yield reduction | > 90% |
| CCCCCCCCCCCCCCCCCCOP(=O)(O)Oc1c2c(c(OP(=O)(O)OCCCCCCCCCCCCCCCCCC)c3c1C1CC3c3cc4c(cc31)C1CC4c3ccccc31)C1CC2c2cc3c(cc21)C1CC3c2ccccc21 | spike pseudoparticle entry | Caco-2 |  |  | IC50 | 15.5 µM |
| CN=c1nc(-c2ccccc2)n(-c2ccccc2)s1 |  | Huh-7 |  | baseline: CC50 over EC50 | selectivity index | inactive |
| CCC1OC(C2(C)CC(C)C(O)(C3(C)CCC(C(O)C4(O)OC(CC5(O)OC(C(C)C(O)CC6CCC(C)C(C(C)C(=O)O)O6)CCC5C)C(C)CC4C)O3)O2)CCC1(C)O (stereo not drawn) | qRT-PCR viral RNA | Vero E6-hTMPRSS2 | concentration not given |  | viral replication | inhibited |
| Cc1ccc(N2CC(N3CCC(C)(O)CC3)C2)cc1C(=O)NC1(c2ccc3c4c(cccc24)C(=O)N3C)CC1 | viral replication | Vero C1008, Omicron BA.5 | 0.05144 µM |  | inhibition | 5% |
| O=P(O)(OCc1ccncc1)Oc1c2c(c(OP(=O)(O)OCc3ccncc3)c3c1C1CC3c3cc4c(cc31)C1CC4c3ccccc31)C1CC2c2cc3c(cc21)C1CC3c2ccccc21 | spike pseudoparticle entry | Caco-2 |  |  | IC50 | 41.9 µM |
| Cc1ccc(N2CC(N3CCC(C)(O)CC3)C2)cc1C(=O)NC1(c2ccc3c4c(cccc24)CC3)CC1 | viral replication | Vero C1008, XBB.1 | 12.5 µM |  | inhibition | 100% |
| Cc1oc2nc1C(=O)N[C@](C)(C(=O)NCCc1ccccc1)c1nc(c(C)o1)C(=O)N[C@](C)(C(=O)NCCc1ccccc1)c1nc(c(C)o1)C(=O)N[C@]2(C)C(=O)NCCc1ccccc1 | viral replication | Vero E6, NRC-03-nhCoV | 20 µM |  | inhibition | ≤ 50% |
| CCn1ccc(-c2cc(-c3cnn(C)c3)cc([C@@H](C)NC(=O)c3cc(OCCN(C)C)ccc3C)c2)n1 | viral replication | recombinant Y268H mutant |  | baseline: wild type | EC50 fold change | 6 to 13 fold |
| Cc1ccc(N2CC3CC(C2)N3C)cc1C(=O)NC1(c2ccc3c4c(cccc24)C(=O)N3C)CC1 | viral replication | Vero C1008, Omicron BA.5 | 0.01715 µM, 72 h |  | inhibition | 0% |
| Oc1ccc(Br)cc1-c1nc2cc(C(F)(F)F)ccc2s1 |  | SB2 | concentration not given, 3 h, unit not given | baseline: DMSO | viral RNA level | 0.0743 and 0.0876 |
| CC(C)CC(C(=O)N1CC2(CC1C#N)C(=O)Nc1ccccc12)N(C)C(=O)c1cc2c(F)cc(F)c(F)c2[nH]1 (stereo not drawn) | viral replication | Vero E6 | 0.1111 µM |  | inhibition | 96.3% and 101% and 98.9% |
| Cc1ccc(N2CCN(C)CC2)cc1C(=O)NC1(c2ccc3c4c(cccc24)CC3)CC1 | viral replication | Vero C1008, Omicron BA.5 | 0.05144 µM |  | inhibition | 0% |
| COc1cccc2[nH]c(C(=O)N[C@@H](CC(C)C)C(=O)N[C@@H](C[C@@H]3CCNC3=O)C(=O)c3nc4ccccc4s3)cc12 | viral RNA, RT-qPCR | VeroE6, WK-521 (ancestral Wuhan) |  |  | EC99 | 8.4 ± 0.23 µM |
| COc1ccc(CCCCCCCCC(=O)c2c(OC)cccc2OC)cc1OC |  | Vero E6/TMPRSS2, WK-521 ancestral |  | baseline: CC50 over EC50 | selectivity index | 4.6 |
| Cc1oc2nc1C(=O)N[C@](C)(C(=O)O)c1nc(c(C)o1)C(=O)N[C@](C)(C(=O)O)c1nc(c(C)o1)C(=O)N[C@]2(C)C(=O)O | viral replication | Vero E6, NRC-03-nhCoV | 2.5 µM |  | inhibition | 11% |
| Cc1c(C(=O)N2c3ccccc3NC(=O)C2CC(=O)Nc2ccc(Cl)c(Cl)c2)oc2ccccc12 (stereo not drawn) |  | A549-ACE2 |  | baseline: CC50 over EC50 | selectivity index | > 10 |

Repeated from above:
| SMILES | assay | test system | conditions | how to read | quantity | result |
| --- | --- | --- | --- | --- | --- | --- |
| CCC1OC(C2(C)CC(C)C(O)(C3(C)CCC(C(O)C4(O)OC(CC5(O)OC(C(C)C(O)CC6CCC(C)C(C(C)C(=O)O)O6)CCC5C)C(C)CC4C)O3)O2)CCC1(C)O (stereo not drawn) | qRT-PCR viral RNA | Vero E6-hTMPRSS2 | concentration not given |  | viral replication | inhibited |
| Cc1ccc(N2CC(N3CCC(C)(O)CC3)C2)cc1C(=O)NC1(c2ccc3c4c(cccc24)C(=O)N3C)CC1 | viral replication | Vero C1008, Omicron BA.5 | 0.05144 µM |  | inhibition | 5% |
| O=P(O)(OCc1ccncc1)Oc1c2c(c(OP(=O)(O)OCc3ccncc3)c3c1C1CC3c3cc4c(cc31)C1CC4c3ccccc31)C1CC2c2cc3c(cc21)C1CC3c2ccccc21 | spike pseudoparticle entry | Caco-2 |  |  | IC50 | 41.9 µM |
